Measured values gathered from unrelated publications.
“And” joins repeats or separate records; there may be more than shown. ± marks the error that the study gave.
Aryl hydrocarbon receptor: Aryl hydrocarbon receptor (Danio rerio, UniProt Q9YGV3)
SET Y135C: Protein SET (SET, Homo sapiens, UniProt Q01105, Y135C)
UniProt Q01105, sequence (whole entry, unmodified, looked up): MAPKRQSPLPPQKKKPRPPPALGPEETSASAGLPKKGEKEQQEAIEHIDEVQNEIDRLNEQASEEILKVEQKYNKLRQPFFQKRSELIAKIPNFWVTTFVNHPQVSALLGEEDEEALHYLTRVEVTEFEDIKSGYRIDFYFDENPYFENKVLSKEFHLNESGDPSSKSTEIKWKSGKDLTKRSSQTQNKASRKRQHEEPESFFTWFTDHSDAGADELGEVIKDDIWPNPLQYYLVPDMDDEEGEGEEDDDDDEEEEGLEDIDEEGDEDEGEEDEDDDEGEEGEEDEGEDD
TOP2A: DNA topoisomerase 2-alpha (TOP2A, Homo sapiens, UniProt P11388)
UniProt P11388, sequence (whole entry, looked up): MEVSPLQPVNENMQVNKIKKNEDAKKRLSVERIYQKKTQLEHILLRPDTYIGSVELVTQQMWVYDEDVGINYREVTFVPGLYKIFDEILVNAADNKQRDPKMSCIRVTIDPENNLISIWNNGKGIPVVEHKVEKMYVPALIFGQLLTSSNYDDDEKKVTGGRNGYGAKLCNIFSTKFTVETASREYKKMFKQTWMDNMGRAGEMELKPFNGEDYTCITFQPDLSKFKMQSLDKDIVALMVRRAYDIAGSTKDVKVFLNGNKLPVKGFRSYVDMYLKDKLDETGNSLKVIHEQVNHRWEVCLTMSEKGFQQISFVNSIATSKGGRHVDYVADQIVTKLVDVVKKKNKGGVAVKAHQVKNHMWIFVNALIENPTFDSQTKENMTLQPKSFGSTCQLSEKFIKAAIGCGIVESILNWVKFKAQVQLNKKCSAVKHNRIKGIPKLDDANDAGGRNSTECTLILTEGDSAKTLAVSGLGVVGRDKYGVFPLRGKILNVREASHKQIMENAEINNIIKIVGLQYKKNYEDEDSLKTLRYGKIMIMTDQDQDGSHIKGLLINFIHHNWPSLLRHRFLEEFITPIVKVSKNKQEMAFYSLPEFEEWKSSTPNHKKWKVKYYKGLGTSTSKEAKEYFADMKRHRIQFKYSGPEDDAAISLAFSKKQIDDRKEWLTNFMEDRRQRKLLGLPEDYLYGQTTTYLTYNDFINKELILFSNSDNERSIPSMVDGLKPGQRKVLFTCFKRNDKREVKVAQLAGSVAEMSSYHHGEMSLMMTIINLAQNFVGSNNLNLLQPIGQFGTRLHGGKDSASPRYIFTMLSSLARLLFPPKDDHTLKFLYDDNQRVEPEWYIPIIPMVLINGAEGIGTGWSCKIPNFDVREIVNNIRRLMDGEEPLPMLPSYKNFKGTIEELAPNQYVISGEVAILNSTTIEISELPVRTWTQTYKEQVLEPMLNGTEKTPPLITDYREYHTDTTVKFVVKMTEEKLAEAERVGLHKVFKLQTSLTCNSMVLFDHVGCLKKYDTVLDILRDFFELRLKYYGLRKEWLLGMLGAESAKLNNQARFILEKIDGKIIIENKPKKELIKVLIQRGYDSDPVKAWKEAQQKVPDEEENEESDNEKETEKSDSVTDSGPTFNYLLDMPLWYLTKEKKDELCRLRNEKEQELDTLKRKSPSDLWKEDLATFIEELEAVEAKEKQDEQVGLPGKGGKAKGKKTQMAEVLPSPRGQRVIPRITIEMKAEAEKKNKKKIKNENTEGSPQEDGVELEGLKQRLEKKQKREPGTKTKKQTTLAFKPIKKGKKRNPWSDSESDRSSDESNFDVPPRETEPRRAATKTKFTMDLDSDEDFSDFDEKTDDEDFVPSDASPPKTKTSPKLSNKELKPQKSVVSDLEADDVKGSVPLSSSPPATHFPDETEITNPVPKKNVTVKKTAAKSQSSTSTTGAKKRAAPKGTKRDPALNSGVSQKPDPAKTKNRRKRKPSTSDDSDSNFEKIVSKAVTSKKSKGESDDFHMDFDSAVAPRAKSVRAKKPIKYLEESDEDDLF
T1: riboswitch RNA yjdF aptamer (Bacillus subtilis); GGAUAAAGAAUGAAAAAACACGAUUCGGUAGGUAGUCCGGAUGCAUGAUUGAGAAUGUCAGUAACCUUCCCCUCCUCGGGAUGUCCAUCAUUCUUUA
T2: DNA aptamer; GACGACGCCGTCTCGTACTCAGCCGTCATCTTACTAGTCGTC
UniProt P51575, sequence (whole entry, unmodified, looked up): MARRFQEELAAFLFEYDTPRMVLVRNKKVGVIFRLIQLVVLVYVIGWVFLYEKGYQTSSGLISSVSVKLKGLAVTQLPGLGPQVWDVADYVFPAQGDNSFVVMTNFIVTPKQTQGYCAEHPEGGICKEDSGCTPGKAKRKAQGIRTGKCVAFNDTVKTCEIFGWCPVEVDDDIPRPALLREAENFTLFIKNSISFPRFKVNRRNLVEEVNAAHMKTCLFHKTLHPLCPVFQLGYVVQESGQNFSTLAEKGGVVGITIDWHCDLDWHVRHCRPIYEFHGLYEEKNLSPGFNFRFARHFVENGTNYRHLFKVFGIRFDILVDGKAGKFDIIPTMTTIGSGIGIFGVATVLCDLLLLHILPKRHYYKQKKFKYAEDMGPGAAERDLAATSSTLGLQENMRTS
UniProt P00519, sequence (whole entry, unmodified, looked up): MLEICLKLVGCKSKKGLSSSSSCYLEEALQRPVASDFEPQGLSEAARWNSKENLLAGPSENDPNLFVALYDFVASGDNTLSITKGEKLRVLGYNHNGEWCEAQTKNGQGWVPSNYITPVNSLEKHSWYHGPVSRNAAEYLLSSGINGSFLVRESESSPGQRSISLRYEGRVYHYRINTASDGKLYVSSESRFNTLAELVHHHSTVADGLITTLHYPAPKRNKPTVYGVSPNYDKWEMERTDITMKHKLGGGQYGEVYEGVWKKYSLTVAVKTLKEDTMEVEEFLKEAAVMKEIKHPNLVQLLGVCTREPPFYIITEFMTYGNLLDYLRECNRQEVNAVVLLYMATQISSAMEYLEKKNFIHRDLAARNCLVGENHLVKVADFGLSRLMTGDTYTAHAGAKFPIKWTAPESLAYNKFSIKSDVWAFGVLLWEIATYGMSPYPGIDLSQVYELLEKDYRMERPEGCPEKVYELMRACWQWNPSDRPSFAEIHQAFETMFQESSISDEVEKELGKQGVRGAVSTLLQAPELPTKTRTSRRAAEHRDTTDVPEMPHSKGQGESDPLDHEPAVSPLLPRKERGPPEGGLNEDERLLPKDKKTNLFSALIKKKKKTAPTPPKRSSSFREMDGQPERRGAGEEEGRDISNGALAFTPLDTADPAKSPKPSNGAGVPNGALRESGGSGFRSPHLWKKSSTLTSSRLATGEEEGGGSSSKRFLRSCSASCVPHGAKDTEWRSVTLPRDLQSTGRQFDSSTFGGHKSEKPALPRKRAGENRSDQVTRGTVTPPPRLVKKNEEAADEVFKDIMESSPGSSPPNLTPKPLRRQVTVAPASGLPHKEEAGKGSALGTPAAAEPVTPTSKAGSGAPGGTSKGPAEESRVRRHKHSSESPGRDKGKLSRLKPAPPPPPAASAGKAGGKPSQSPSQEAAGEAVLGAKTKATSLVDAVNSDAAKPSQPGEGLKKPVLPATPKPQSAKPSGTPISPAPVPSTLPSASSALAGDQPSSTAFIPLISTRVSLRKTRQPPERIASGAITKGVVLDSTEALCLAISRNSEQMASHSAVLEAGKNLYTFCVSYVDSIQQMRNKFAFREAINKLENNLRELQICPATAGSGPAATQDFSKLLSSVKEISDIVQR
UniProt Q16774, sequence (whole entry, looked up): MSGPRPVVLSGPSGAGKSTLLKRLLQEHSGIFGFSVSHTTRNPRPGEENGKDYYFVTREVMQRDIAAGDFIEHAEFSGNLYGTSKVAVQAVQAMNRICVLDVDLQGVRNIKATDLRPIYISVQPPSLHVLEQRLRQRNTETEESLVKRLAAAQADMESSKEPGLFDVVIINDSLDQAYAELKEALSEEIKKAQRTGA
UniProt O76090, sequence (whole entry, unmodified, looked up): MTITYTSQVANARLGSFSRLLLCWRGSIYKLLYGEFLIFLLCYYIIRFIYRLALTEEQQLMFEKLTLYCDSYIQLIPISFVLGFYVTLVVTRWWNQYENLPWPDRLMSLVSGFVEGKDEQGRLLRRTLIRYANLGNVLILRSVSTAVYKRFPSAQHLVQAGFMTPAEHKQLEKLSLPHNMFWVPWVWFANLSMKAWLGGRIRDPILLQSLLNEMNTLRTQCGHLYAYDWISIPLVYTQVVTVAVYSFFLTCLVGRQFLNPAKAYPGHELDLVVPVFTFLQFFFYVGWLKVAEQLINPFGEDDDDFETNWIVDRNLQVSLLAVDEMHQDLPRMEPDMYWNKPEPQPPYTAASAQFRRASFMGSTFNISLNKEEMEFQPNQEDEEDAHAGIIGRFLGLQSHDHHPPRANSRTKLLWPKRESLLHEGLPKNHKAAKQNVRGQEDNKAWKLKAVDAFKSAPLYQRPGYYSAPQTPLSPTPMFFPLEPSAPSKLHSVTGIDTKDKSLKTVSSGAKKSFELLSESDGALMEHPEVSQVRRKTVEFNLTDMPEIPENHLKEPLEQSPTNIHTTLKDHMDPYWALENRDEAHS
UniProt P28062, sequence (whole entry, looked up): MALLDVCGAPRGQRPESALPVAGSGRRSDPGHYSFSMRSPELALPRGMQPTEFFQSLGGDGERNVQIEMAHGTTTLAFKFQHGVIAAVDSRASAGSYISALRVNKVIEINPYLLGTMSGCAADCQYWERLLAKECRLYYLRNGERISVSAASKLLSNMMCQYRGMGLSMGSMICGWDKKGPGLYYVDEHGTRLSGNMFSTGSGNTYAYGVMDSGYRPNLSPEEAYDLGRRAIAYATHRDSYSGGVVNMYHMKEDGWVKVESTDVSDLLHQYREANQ
UniProt P25090, sequence (whole entry, looked up): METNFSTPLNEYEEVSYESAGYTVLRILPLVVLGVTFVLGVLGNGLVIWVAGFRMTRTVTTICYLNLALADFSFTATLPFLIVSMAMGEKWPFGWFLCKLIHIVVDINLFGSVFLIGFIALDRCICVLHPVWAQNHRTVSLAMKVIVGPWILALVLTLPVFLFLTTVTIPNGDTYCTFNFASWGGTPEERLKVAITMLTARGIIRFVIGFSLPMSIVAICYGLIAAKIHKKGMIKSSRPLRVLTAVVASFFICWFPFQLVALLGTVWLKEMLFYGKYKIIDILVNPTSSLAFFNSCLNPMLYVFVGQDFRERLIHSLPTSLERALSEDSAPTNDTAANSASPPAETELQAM
UniProt P20618, sequence (whole entry, looked up): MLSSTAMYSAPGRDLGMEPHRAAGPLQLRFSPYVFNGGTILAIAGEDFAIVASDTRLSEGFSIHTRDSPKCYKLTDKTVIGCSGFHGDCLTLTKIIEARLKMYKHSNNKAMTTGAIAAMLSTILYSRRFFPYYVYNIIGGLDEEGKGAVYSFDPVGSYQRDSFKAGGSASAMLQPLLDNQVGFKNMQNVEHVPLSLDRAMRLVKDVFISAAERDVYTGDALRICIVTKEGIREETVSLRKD

CCN1CCC[C@H]1CNC(=O)c1c(O)c(Cl)cc(Cl)c1OC  log2 fold change (G-protein coupled receptor 6 (Homo sapiens, UniProt P46095); β-arrestin recruitment, TANGO luminescence, item: GPR6; concentration not given; baseline: basal luminescence): 0.017
c1ccc2c(c1)-c1cccc3c1c-2cc1ccccc13  fold change (Aryl hydrocarbon receptor; reporter gene, agonist, luciferase reporter; ZF-4; 13.72 µM; baseline: vehicle control): 4.28
CN1CCN(c2cc(-c3ccncc3)c(-c3ccc4ccccc4c3)nn2)CC1  activation (FPR2 (Homo sapiens, UniProt P25090); agonist, FLIPR; 12.5 µM): -0.3%
c1ccc2ncccc2c1  Emax (Or8a1 (Mus musculus, UniProt Q60893); odorant-evoked current, agonist; isolated olfactory neurons; baseline: acetophenone saturated response): 100 ± 3%
O=S(=O)(O)C1CCNCC1  normalised MST signal (SLC6A6 (Homo sapiens, UniProt P31641, Y138A); binding, microscale thermophoresis; 488 nM, room temperature, added: 50 nM labelled protein; higher = more binding): 0.00653
OC[C@H]1OC(O)[C@H](O)[C@@H](O)[C@@H]1O (stereo partly drawn)  kcat (Hexokinase-3 (HK3, Homo sapiens, UniProt P52790); enzyme activity, coupled G6PDH; substrate inhibition fit, added: ATP 20 mM): 46 ± 15 s⁻¹
O=C1C[C@@H](c2ccccc2)Oc2cc(O)cc(O)c21  fold change (Aryl hydrocarbon receptor; reporter gene, agonist, luciferase reporter; ZF-4; 3333.33 µM; baseline: vehicle control): 1.13
Cc1cccc(N2CC(C(=O)O)CC2=O)c1 (stereo not drawn)  fold enrichment (DDB1- and CUL4-associated factor 7 (Homo sapiens, UniProt P61962); binding, affinity selection mass spectrometry; baseline: other proteins in batch): 0.791
O=C(Nc1cccc2[nH]ccc12)c1ccc(C(F)(F)F)cc1  fibril formation (Alpha-synuclein (SNCA, Homo sapiens, UniProt P37840); ThT kinetics; concentration not given, added: SNCA 2 µM): inhibited
c1cnn2ncc(-c3ccnc(N4CCC45COC5)n3)c2c1  remaining binding (ABL1 (Homo sapiens, UniProt P00519, H396P); KINOMEscan; 1 µM; baseline: control): 70%
Nc1nc2c(ncn2[C@@H]2O[C@H](COP(=O)(O)O)[C@@H](O)[C@H]2O)c(=O)[nH]1  reaction rate (GUK1 (Homo sapiens, UniProt Q16774); enzyme activity, NADH-coupled; 250 µM): 37.9 s⁻¹ and 39.7 s⁻¹ and 42 s⁻¹
CN1C(=O)/C(=C2\Nc3ccccc3\C2=N/O)c2ccc(Br)cc21  fold change (Aryl hydrocarbon receptor; reporter gene, agonist, luciferase reporter; ZF-4; 0.8 µM; baseline: vehicle control): 20.7
C=CC(=O)N1CCC(C(=O)NCC(=O)N2CCN(c3nc(-c4cnc(N)nc4C(F)F)nc(N4CCOCC4)n3)CC2)CC1  remaining binding (NUAK2 (Homo sapiens, UniProt Q9H093); KINOMEscan; 1 µM): 100%
COc1cc(-c2[nH]nnc2C(=O)c2ccccc2)ccc1O  remaining activity (rhlR (Pseudomonas aeruginosa, UniProt P54292); reporter gene, inhibitor, quorum sensing reporter strain; 10 µM, 1.5 h; baseline: DMSO): 75%
CCCCCCCCCCCCC/C=C/[C@@H](O)[C@H](CO)NC(=O)CCCCCCCCCCCCCCCCC  lipid fraction bound (SET Y135C; lipid binding, GFP pull-down LC-MS/MS; A549 overexpressing GFP-tagged protein; baseline: eluate plus flow-through): 72.7%
CC[C@@H]1[C@H](F)C(=O)N[C@@H]1COc1nccc2cc(C(N)=O)c(OC)cc12  inhibition (MASTL (Homo sapiens, UniProt Q96GX5); ATP-site probe binding, inhibitor, ActivX ATP probe profiling; THP-1 cell lysate; 0.04 mM, ATP loop site): 3.9%
O=C(COP(=O)(O)O)[C@@H](O)[C@H](O)[C@H](O)COP(=O)(O)O  thermal stability ratio (Myosin-10 (Homo sapiens, UniProt P35580); thermal proteome profiling, item: MYH10; HepG2 cell lysate; concentration not given, 57 over 37 °C, mean; baseline: compound over control): 0.647
O=C(Nc1cccc2c(=O)cc(-c3nnn[nH]3)oc12)c1ccc(OCCCCc2ccccc2)cc1  Hill coefficient (LRRC8A/LRRC8C (Homo sapiens, UniProt Q8IWT6+Q8TDW0, E6A); whole-cell patch clamp; HCT116 LRRC8-/- transfected; at -100 mV): 1.33
COc1cc(Nc2ncc3c(n2)-c2ccc(Cl)cc2C(c2c(F)cccc2OC)=NC3)ccc1C(=O)O  remaining activity (JAK2 JH1 JH2; inhibitor, biochemical kinase; 1 µM): 107%
CC(C)C[C@H](NC(=O)[C@H](Cc1ccccc1)NC(=O)c1cnccn1)B(O)O  reversibility (Proteasome component C5/PSMB8 (Homo sapiens, UniProt P20618+P28062); inhibitor, jump dilution; 1 h): 20 ± 4.7%
COc1cc(-c2cc(C(C)=O)n3ccccc23)cc(OC)c1Cn1ccnc1  ΔTm (EP300 (Homo sapiens, UniProt Q09472)): 1.4 °C
Cc1cc2nc3[nH]c(=O)[nH]c(=O)c3nc2cc1C  Kd (T1, riboswitch RNA yjdF aptamer (Bacillus subtilis); fluorescence titration; added: 380 nM lumichrome): 1800 nM
CCCCCCCCCCCCC/C=C/[C@@H](O)[C@H](CO)NC(=O)CCCCCCCCCCCCCCCCCCCCCCCCC  lipid fraction bound (Protein SET (SET, Homo sapiens, UniProt Q01105, K222D); lipid binding, GFP pull-down LC-MS/MS; A549 overexpressing GFP-tagged protein; baseline: eluate plus flow-through): 3.7%
O=c1nc(SCc2cc(F)cc(C(F)(F)F)c2)nc(SCc2ccc3nc(Cl)ccc3c2)[nH]1  linear DNA (TOP2A; DNA cleavage; 31.25 µM, added: etoposide 50 µM): 10.5%
CN(C)c1nccc(-c2cnc3ncccn23)n1  remaining binding (ABL1 (Homo sapiens, UniProt P00519, F317I); KINOMEscan; 1 µM): 42% and 69%
CCCCCCCCCCCCC/C=C/[C@@H](O)[C@H](CO)NC(=O)CCCCCCCCCCCCCCCCCCCCC  lipid fraction bound (Protein SET (SET, Homo sapiens, UniProt Q01105); lipid binding, GFP pull-down LC-MS/MS; A549 overexpressing GFP-tagged protein; baseline: eluate plus flow-through): 8.3%
Cc1nc(CSc2nc(SCc3ccc(C(C)C)cc3)nc(=O)[nH]2)cs1  relaxed DNA (TOP2A; DNA relaxation; 31.25 µM, replicate 2): 99.9%
CCCCCCCCCCCCC/C=C/[C@@H](O)[C@H](CO)NC(=O)CCCCCCCCCCCCCCCCCCCCCCC  lipid fraction bound (SET Y135C; lipid binding, GFP pull-down LC-MS/MS; A549 overexpressing GFP-tagged protein; baseline: eluate plus flow-through): 8%
Nc1nnc(-c2ccccc2O)cc1N1CCN(Cc2ccc(OCCOCCNc3cccc4c3C(=O)N(C3CCC(=O)NC3=O)C4=O)c(F)c2)CC1 (stereo not drawn)  decrease in protein level (SMARCA2 (Homo sapiens, UniProt P51531); immunoblot; mouse, NCI-H1568 xenograft, tumour lysate; dose not given, 6 h after final dose; baseline: vehicle): 88%
CC1(C)S[C@@H]2[C@H](NC(=O)[C@H](N)c3ccccc3)C(=O)N2[C@H]1C(=O)O  Kd (T2, DNA aptamer; ITC): 12700 nM
C[C@H]1CCN(c2nccc(-c3cnn4ncccc34)n2)C1  remaining binding (ABL1 (Homo sapiens, UniProt P00519, Q252H); 1 µM; baseline: control): 69%
Oc1ccccc1-c1n[nH]cc1-c1ccnc2ccccc12  log2 fold change (Serine/threonine-protein kinase ATG1 (ATG1, Candida albicans, UniProt Q5A649); kinase binding, MIB/MS competition; Candida albicans lysate; 10 µM; baseline: DMSO, negative = stronger binding): 0.15
C#Cc1cccc(Oc2ccc(-c3nn([C@@H]4CCCN(C(=O)C=C)C4)c4ncnc(N)c34)cc2)c1  SILAC ratio (Prostaglandin E synthase 2 (Homo sapiens, UniProt Q9H7Z7); ABPP-SILAC; 1 µM, 1 h; baseline: DMSO): 1
O=C(O)c1ccc(Nc2ncc3c(n2)-c2ccc(Cl)cc2C(c2c(F)cccc2F)=NC3)cc1  remaining activity (Pyk2(h); kinase activity; 1 µM): 90%
Cc1cc2ccccc2c2ccc3ccccc3c12  fold change (Aryl hydrocarbon receptor; reporter gene, agonist, luciferase reporter; ZF-4; 13.72 µM; baseline: vehicle control): 2.21
NC[C@H](O)c1ccc(O)c(O)c1  EC80 (ADRA2B (Homo sapiens, UniProt P18089); AP-TGFα shedding; HEK293A): 12.9 nM
CC[C@H](C)[C@H](NC(=O)[C@H](CCCNC(=N)N)NC(=O)[C@H](Cc1c[nH]cn1)NC(=O)[C@H](CCCNC(=N)N)NC(=O)[C@H](CC(=O)O)NC(=O)[C@@H](N)CC(=O)O)C(=O)N[C@@H](CCC(=O)O)C(=O)N[C@@H](CCC(=O)O)C(=O)N[C@@H](CCCCN)C(=O)N[C@@H](CCCNC(=N)N)C(=O)N[C@@H](CCCCN)C(=O)N[C@@H](CCCNC(=N)N)C(=O)N[C@H](C(=O)N[C@@H](Cc1ccc(O)cc1)C(=O)N[C@@H](CCC(=O)O)C(=O)N[C@H](C(=O)N[C@@H](Cc1ccccc1)C(=O)N[C@@H](CCCCN)C(=O)N[C@@H](CO)C(=O)N[C@H](C(=O)N[C@@H](CCSC)C(=O)N[C@@H](CCCCN)C(=O)N[C@@H](CCCCN)C(=O)N[C@@H](CO)C(=O)N1CCC[C@H]1C(=O)N[C@@H](Cc1ccccc1)C(=O)N[C@@H](CC(N)=O)C(=O)NCC(=O)N1CCC[C@H]1C(=O)O)[C@@H](C)CC)[C@@H](C)O)[C@@H](C)O  ΔH (NF-kappa-B inhibitor alpha (Homo sapiens, UniProt P25963); binding, ITC; 293 K, 150 mM NaCl): -4.3 ± 0.2 kcal/mol
O=C(COc1ccc(C2CCC(=O)NC2=O)cc1)NCCCCCCN1CCc2c(c3ccccc3n2Cc2ccc(C(=O)NO)cc2)C1 (stereo not drawn)  degradation (HDAC6 (Homo sapiens, UniProt Q9UBN7); degrader, western blot; MM1.S; 5 µM, 24 h): 30%
c1ccc(-n2ccc3cnc(Nc4ccc(N5CCOCC5)cc4)nc32)nc1  reduction of histone H3 Ser10 phosphorylation (Aurora kinase (ark1, Schizosaccharomyces pombe, UniProt O59790); Schizosaccharomyces pombe cells, MDR-sup; 5 µM): ~90%
Nc1ccc(C(=O)O)cc1  current density (BEST1, with wild-type BEST1 (Homo sapiens, UniProt O76090, D302A); ion current, whole-cell patch clamp; HEK293 co-expressing mutant and wild-type; concentration not given, voltage -40 mV): -7.11 pA/pF and -6.24 pA/pF and -9.04 pA/pF and -3.02 pA/pF and -3.11 pA/pF and -5.81 pA/pF
Nc1ncnc2c1ncn2[C@@H]1O[C@H](COP(=O)(O)CP(=O)(O)OP(=O)(O)O)[C@@H](O)[C@H]1O  calcium influx (P2X purinoceptor 1 (P2RX1, Homo sapiens, UniProt P51575, K215A); calcium influx; 3.16 µM; baseline: ionomycin response): 86.3% and 80.6% and 88.7%
Cn1c2c(Cl)c(Cl)ccc2c2cc(N)[nH]c(=O)c21  delta Tm (Serine/threonine-protein kinase VRK3 (VRK3, Homo sapiens, UniProt Q8IV63); thermal stability, thermal shift; 10 µM; higher = stronger binding): 0.1 °C
